Assay results collected from several papers.
Lines come from different studies, so protocols differ. Several values in a cell are separate wells, animals, samples, runs or records. ± marks the error that the study gave.

| SMILES | tested on | assay | test system | setting | endpoint | value |
| --- | --- | --- | --- | --- | --- | --- |
| Cc1ccc(Nc2ncnc3ccc(-c4ccc(S(=O)(=O)N5CCOCC5)cc4)cc23)cc1 | Leishmania major | intracellular amastigote growth, luciferase | RAW264.7 macrophages |  | EC50 | 20 µM |
| C=C[C@]1(C)C[C@@H](OC(=O)CSc2ccc(NC(=O)c3ccco3)cc2)[C@]2(C)[C@H](C)CC[C@]3(CCC(=O)[C@H]32)[C@@H](C)[C@@H]1O |  |  | Mycoplasma gallisepticum-infected chickens, plasma | intramuscular, 40 mg/kg, 3 h | plasma concentration | 720 ng/mL and 533 ng/mL and 555 ng/mL and 874 ng/mL and 616 ng/mL and 801 ng/mL and 818 ng/mL and 766 ng/mL |
| CC[n+]1cccc2cc(/C=N/NC(=O)c3cncc(C(=O)N/N=C/c4ccc5c(ccc[n+]5CC)c4)n3)ccc21 | hp2 hairpin duplex DNA | FRET melting |  | 1 µM, added: ds26 10 µM | ΔTm | 1.6 ± 0.1 °C |
| CNc1cc(C)c(C(N)=O)cn1 |  |  | Han Wistar rats, male, plasma | oral, 30 mg/kg, 4.00 h | plasma concentration | 53.5 µM |
| O=S(=O)(c1ccc(-c2ccc3ncnc(Nc4ccc(OCc5cccc(F)c5)cc4)c3c2)cc1)N1CCOCC1 | Leishmania major | intracellular amastigote growth, luciferase | RAW264.7 macrophages |  | EC50 | 0.47 µM |
| COc1ccc(C(N)=O)cn1 |  |  | Han Wistar rats, male, plasma | oral, 30 mg/kg, 4.00 h | plasma concentration | 4.3 µM |
| [2H]C([2H])(N)C([2H])([2H])NC(=O)c1cc(C2CC2)nc2c1cnn2C(C)C |  |  | mouse BALB/c female, plasma | intraperitoneal, 50 mg/kg, 0.25 h | plasma concentration | 1820 ng/mL and 1760 ng/mL and 2200 ng/mL and 2080 ng/mL |
| Cc1ncsc1-c1ccc(CNC(=O)[C@@H]2C[C@@H](O)CN2C(=O)[C@@H](NC(=O)COCC(C)(COCCOCCOCCNC(=O)C[C@@H]2N=C(c3ccc(Cl)cc3)c3c(sc(C)c3C)-n3c(C)nnc32)COCCOCCOCCNC(=O)C[C@@H]2N=C(c3ccc(Cl)cc3)c3c(sc(C)c3C)-n3c(C)nnc32)C(C)(C)C)cc1 |  | LC-MS/MS | male C57BL/6 mice, plasma | intravenous, 5 mg/kg, 5 min | plasma concentration | 32100 ng/mL and 33300 ng/mL |
| CC[C@H](C)[C@H](NC(=O)[C@H](Cc1ccc(O)cc1)NC(=O)[C@@H](NC(=O)[C@H](CCCNC(=N)N)NC(=O)[C@@H](N)CC(=O)O)C(C)C)C(=O)N[C@@H](Cc1c[nH]cn1)C(=O)N1CCC[C@H]1C(=O)O |  | LC-MS/MS | Sprague-Dawley rat, both sexes, plasma | subcutaneous, 10 mg/kg/day, day 27, 2 h, 120 min | plasma concentration | 1.89 ng/mL |
| C[n+]1cc(/C=N/NC(=O)C(=O)N/N=C/c2cc3ccccc3[n+](C)c2)cc2ccccc21 | hp2 hairpin duplex DNA | FRET melting |  | 1 µM | ΔTm | 1.3 ± 0.3 °C |
| CC1(C)CC[C@@]2(CO)C(=C3C=C[C@@H]4[C@@]5(C)CC[C@H](O)[C@@](C)(CO)[C@@H]5CC[C@@]4(C)[C@]3(C)C[C@@H]2O)C1 |  | UHPLC-MS/MS | mouse, plasma | oral, 50 mg/kg of saikosaponin a, 4 h | plasma concentration | 17.5 ng/mL |
| C=CC(=O)N1CCCC(n2c(=O)c3ncccc3n(Cc3ccc(Oc4ccccc4)cc3)c2=O)C1 (centres unmarked) |  |  | male BALB/c mouse, plasma | oral, 200 mg/kg, 0.25 h | plasma concentration | 26900 ng/mL |
| CNc1cc(N)c(C(N)=O)cn1 |  |  | Han Wistar rats, male, plasma | oral, 30 mg/kg, 1.50 h | plasma concentration | 19.4 µM |
| C[C@]12C[C@H](c3ccc(S(C)(=O)=O)cc3)C3=C4CCC(=O)C=C4CC[C@H]3[C@@H]1CC[C@@]2(O)C(F)(F)C(F)(F)F |  | refers to: compound (parent) | healthy human volunteers, pooled plasma | oral, 5 mg daily, day 28, 0.5 h | plasma concentration | 13.1 ng/mL |

Repeated from above:
| SMILES | tested on | assay | test system | setting | endpoint | value |
| --- | --- | --- | --- | --- | --- | --- |
| C=CC(=O)N1CCCC(n2c(=O)c3ncccc3n(Cc3ccc(Oc4ccccc4)cc3)c2=O)C1 (centres unmarked) |  |  | male BALB/c mouse, plasma | oral, 200 mg/kg, 0.25 h | plasma concentration | 26900 ng/mL |
| CNc1cc(N)c(C(N)=O)cn1 |  |  | Han Wistar rats, male, plasma | oral, 30 mg/kg, 1.50 h | plasma concentration | 19.4 µM |
